Results of several laboratories.
Compare with care: the assays were run in different laboratories. “And” joins repeats or separate records; there may be more than shown.
ADRB2: Beta-2 adrenergic receptor (ADRB2, Homo sapiens, UniProt P07550)
Chain of UniProt P07550 (whole entry, looked up): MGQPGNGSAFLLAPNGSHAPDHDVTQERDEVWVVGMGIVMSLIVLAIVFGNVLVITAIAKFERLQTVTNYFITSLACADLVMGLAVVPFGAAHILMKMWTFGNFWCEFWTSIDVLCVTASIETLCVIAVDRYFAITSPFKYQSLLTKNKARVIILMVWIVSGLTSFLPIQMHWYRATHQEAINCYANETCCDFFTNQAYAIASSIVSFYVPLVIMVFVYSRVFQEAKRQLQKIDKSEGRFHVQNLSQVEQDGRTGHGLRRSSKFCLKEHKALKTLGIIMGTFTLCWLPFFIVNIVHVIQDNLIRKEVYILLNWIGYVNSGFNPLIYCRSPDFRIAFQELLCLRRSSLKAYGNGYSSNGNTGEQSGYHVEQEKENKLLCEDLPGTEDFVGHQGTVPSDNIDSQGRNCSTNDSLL

CCN1/C(=C/C(C)=O)Sc2ccc(F)cc21
inhibition (ADRB2; 10 µM): 3.19%

OCCCN1CC[C@@H]2C[C@H]1c1cc(-c3ccc(C(F)(F)F)cc3)ccc12
inhibition (ADRB2; radioligand binding, PDSP competition binding; 10 µM): < 50%

CCCC(CCC)c1nc2c(Nc3ccc(C#CCCCCCCCCN)cc3)nc3ccccc3c2[nH]1
off-target affinity (ADRB2; PDSP screening): inactive

CN1CCC(CNc2ccc3ncc(-c4cccc(OC(F)(F)F)c4)n3n2)CC1
response (ADRB2; cAMP, antagonist, cell-based GPCR; 10 µM; baseline: control): > 50%

CCC(NC(C)C)C(O)c1ccc(O)c2[nH]c(=O)ccc12 (centres unmarked)
Hill coefficient (Beta-2 adrenergic receptor, V2R C-tail fusion (ADRB2, Homo sapiens, UniProt P07550); β-arrestin recruitment, agonist, two-component system, measured: Cerulean; HEK293): 1.09

COc1cc(Cl)c(C(=O)N[C@@H](CN[C@H]2CC[C@@H](N)CC2)Cc2ccc(C#N)cc2)cc1-c1ccc(CN[C@H](C)c2ccc(C)cc2)o1
inhibition (ADRB2; agonist response, antagonist; 2; 10 µM): 45%

N[C@@H](Cc1ccccc1)C(=O)O
cAMP level (ADRB2; HEK293 expressing β2AR; 100 nM): 19.1 pmol/mg protein and 16.6 pmol/mg protein and 18 pmol/mg protein and 16.4 pmol/mg protein and 19.7 pmol/mg protein

CN(C(=O)n1cnc(-c2ccc[n+]([O-])c2)c1)C1CCCCC1
inhibition (ADRB2; 10 µM): 25.2%

Some of these lines once more:
OCCCN1CC[C@@H]2C[C@H]1c1cc(-c3ccc(C(F)(F)F)cc3)ccc12
inhibition (ADRB2; radioligand binding, PDSP competition binding; 10 µM): < 50%
